Assay results collected from several papers.
Lines come from different studies, so protocols differ. Numbers after ± are the reported error.

`NCC[C@H](O)C(=O)N[C@@H]1C[C@H](N)[C@@H](O[C@H]2O[C@H](CN)[C@@H](O)[C@H](O)[C@H]2O)[C@H](O)[C@H]1O[C@H]1O[C@H](CO)[C@@H](O)[C@H](N)[C@H]1O` has an MIC of 2 µg/mL (Mycobacteroides abscessus; ATCC 19977 ∆tap; 120 h).
`O=C(O)c1cn(C2CC2)c2cc(N3CCNCC3)c(F)cc2c1=O` has an MIC of 2.45 µM (Staphylococcus aureus, Bacillus subtilis, Escherichia coli; bacterial growth; 24 h).
With `CC[C@H](C)[C@@H]1NC(=O)[C@H]([C@@H](C)O)NC(=O)[C@@H](NC(=O)[C@H](Cc2ccccc2)NC(=O)[C@H](C)NC(=O)[C@H](CCCCN)NC(=O)[C@H](CCCCN)NC(=O)[C@H](C)NC(=O)[C@@H](NC(=O)[C@H](CCCCN)NC(=O)[C@H](C)NC(=O)[C@H](C)NC(=O)[C@@H](NC(=O)CNC(=O)[C@H](C)NC(=O)[C@@H](NC(=O)[C@H](CCCCN)NC(=O)[C@@H]2CCCN2C(=O)[C@H](Cc2ccccc2)NC(=O)[C@@H](N)Cc2ccccc2)C(C)C)C(C)C)C(C)C)CSSC[C@@H](C(=O)O)NC(=O)[C@H](CCCCN)NC(=O)[C@H](CCCCN)NC(=O)[C@H](CO)NC1=O` the MIC was greater than 128 µM (Enterococcus faecium; 12697; 18 h).
`CC[C@H](C)[C@H](NC(=O)CN)C(=O)NCC(=O)N[C@@H](C)C(=O)N[C@H](C(=O)N[C@@H](CC(C)C)C(=O)N[C@@H](CCCCN)C(=O)N[C@H](C(=O)N[C@@H](CC(C)C)C(=O)N[C@H](C(=O)N[C@H](C(=O)NCC(=O)N[C@@H](CC(C)C)C(=O)N1CCC[C@H]1C(=O)N[C@@H](C)C(=O)N[C@@H](CC(C)C)C(=O)N[C@H](C(=O)N[C@@H](CO)C(=O)N[C@@H](Cc1c[nH]c2ccccc12)C(=O)N[C@H](C(=O)N[C@@H](CCCCN)C(=O)N[C@@H](CCCNC(=N)N)C(=O)N[C@@H](CCCCN)C(=O)N[C@@H](CCCNC(=N)N)C(=O)N[C@@H](CCC(N)=O)C(=O)N[C@@H](CCC(N)=O)C(N)=O)[C@@H](C)CC)[C@@H](C)CC)[C@@H](C)O)[C@@H](C)O)C(C)C)C(C)C` has an MIC of 1.6 µM (Staphylococcus epidermidis; broth microdilution; KCTC 1917; 16 h, 37 °C).
With `CC(C)[C@H](NC(=O)[C@H](CO)NC(=O)[C@H](CCCNC(=N)N)NC(=O)[C@H](CCCNC(=N)N)NC(=O)[C@H](CCCNC(=N)N)NC(=O)[C@H](CCCNC(=N)N)NC(=O)CN)C(=O)N[C@@H](CCC(N)=O)C(=O)N[C@@H](Cc1c[nH]c2ccccc12)C(=O)N[C@@H](CS)C(=O)N[C@@H](C)C(=O)O` the MIC was 37.3 ± 13.1 µg/mL (Streptococcus mutans; broth microdilution; UA159; 24 h, planktonic anaerobic).
For `CC[C@H](C)[C@H](NC(=O)CNC(=O)[C@H](CCCNC(=N)N)NC(=O)[C@H](Cc1ccccc1)NC(=O)[C@@H](NC(=O)[C@H](Cc1c[nH]cn1)NC(=O)[C@H](Cc1c[nH]cn1)NC(=O)[C@H](Cc1ccccc1)NC(=O)[C@@H](N)Cc1ccccc1)[C@@H](C)CC)C(=O)N[C@H](C(=O)N[C@@H](Cc1c[nH]cn1)C(=O)N[C@H](C(=O)NCC(=O)N[C@@H](CCCCN)C(=O)N[C@H](C(=O)N[C@@H](CCCCN)C(=O)N[C@@H](Cc1c[nH]cn1)C(=O)N[C@@H](CCCNC(=N)N)C(=O)N[C@@H](CC(C)C)C(=O)N[C@H](C(=O)N[C@H](C(=O)NCC(N)=O)[C@@H](C)O)C(C)C)[C@@H](C)O)C(C)C)C(C)C`, the MIC was 3.1 µg/mL (Staphylococcus epidermidis; broth microdilution; ATCC 1435; 18 h, 37 °C).
For `CCCCCCCCCCCCCCCC(=O)N/N=C/c1ccccc1`, the MIC was 138 µM (Aspergillus niger; microbial growth, broth dilution; 7 days).
With `Cc1ccccc1OCc1n(CC(=O)OC2CC(C)CCC2C(C)C)c2ccccc2[n+]1C` (stereo not shown) the MIC was 26.2 µM (Mycobacteroides abscessus; microbial growth).
`CCCCCCCCCCCCCCCC(=O)N/N=C/c1ccccc1Cl` gave an MIC of 31.6 µM (Staphylococcus aureus, Bacillus subtilis, Escherichia coli; bacterial growth; 24 h).
The tracer uptake of `CN[C@@](C)(C[18F])C(=O)O` is reported as 1.3 %ID/g (MDA-MB-468 tumour model; host not given, muscle; 1 h, tumour-bearing).

A few entries again:
`O=C(O)c1cn(C2CC2)c2cc(N3CCNCC3)c(F)cc2c1=O` has an MIC of 2.45 µM (Staphylococcus aureus, Bacillus subtilis, Escherichia coli; bacterial growth; 24 h).
